Assay results pooled from the literature.
Compare with care: the assays were run in different laboratories.
Oprk1: Kappa-type opioid receptor (Oprk1, Rattus norvegicus, UniProt P34975)
Sigmar1: Sigma non-opioid intracellular receptor 1 (Sigmar1, Rattus norvegicus, UniProt Q9R0C9)
Phospholipase D2: Phospholipase D2 (Homo sapiens, UniProt O14939)

For `C[C@H](NC(=O)CNC(=O)CNC(=O)[C@H](Cc1ccc(O)cc1)NCc1ccccc1)C(=O)N[C@@H]1CC(=O)NC[C@@H](C(=O)N[C@@H](CCCNC(=N)N)C(=O)N2CCC[C@H]2C(=O)N[C@@H](CCCCN)C(N)=O)NC(=O)[C@H](CCCNC(=N)N)NC(=O)[C@H](CCCNC(=N)N)NC1=O`, the selectivity ratio was over 2.5 (Oprk1; binding; reference: Ki(MOR) over Ki(KOR)).
The selectivity ratio of `N[C@@H](CCC(=O)N[C@@H](CS[Se]Cc1ccc(C(=O)Nc2cc(C(F)(F)F)c(Br)c(C(F)(F)F)c2)cc1)C(=O)NCC(=O)O)C(=O)O` is reported as 94 (Tyrosine-protein phosphatase non-receptor type 1 (PTPN1, Homo sapiens, UniProt P18031); enzyme activity; with: pNPP, GSH 1 mM; reference: IC50 PTPN1 over mPTPA).
With `CCCCc1ccc2c(c1)sc(=O)n2CCCCCCN1CCCCCC1` the selectivity ratio was 0.3 (Sigmar1; reference: Ki sigma-2 over Ki sigma-1).
`CC(C)C[C@H](NC(=O)[C@H](CCCNC(=N)N)NC(=O)[C@H](Cc1ccccc1)NC(=O)[C@H](Cc1ccccc1)NC(=O)[C@H](Cc1ccccc1)N(C)C(=O)CN)C(=O)N[C@@H](CCCNC(=N)N)C(=O)N[C@@H](CCCNC(=N)N)C(=O)N[C@H](C)C(=O)N[C@@H](CCCNC(=N)N)C(=O)N1CCC[C@H]1C(=O)N[C@@H](CCCCN)C(N)=O` gave a selectivity ratio of 106 (Oprk1; binding, [3H]diprenorphine competition; CHO cells; reference: Ki mu over Ki kappa, higher = more kappa-selective).
`CCC[C@H]1CC[C@H](c2ccc(NC(=S)NC[C@@H]3[C@@H](O)[C@@H](O)[C@H]4[C@H](O)CCCN43)cc2)CC1` gave a selectivity ratio of 106 (Alpha-mannosidase 2 (Homo sapiens, UniProt Q16706); inhibitor; with: fluorogenic mannoside substrate; reference: lysosomal over Golgi mannosidase Ki).
With `CCCCc1ccc2c(c1)sc(=O)n2CCCN1CCCCCC1` the selectivity ratio was 7 (Sigmar1; reference: Ki sigma-2 over Ki sigma-1).
For `O=C(NCCN1CCC2(CC1)C(=O)NCN2C(=O)C1CC1)c1ccc2ccccc2c1`, the selectivity ratio was 7 fold (Phospholipase D2; reference: PLD1 IC50 over Phospholipase D2 IC50).
`CCC(=O)c1ccc2c(c1)sc(=O)n2CCN1CCCCCC1` gave a selectivity ratio of 483 (Sigmar1; reference: Ki sigma-2 over Ki sigma-1).
`O=C(NCCN1CCC2(CC1)C(=O)NCN2Cc1ccccn1)c1ccc2ccccc2c1` has a selectivity ratio of 30 fold (Phospholipase D2; reference: PLD1 IC50 over Phospholipase D2 IC50).
With `CCCc1ccc2c(c1)sc(=O)n2CCCN1CCCCCC1` the selectivity ratio was 13 (Sigmar1; reference: Ki sigma-2 over Ki sigma-1).
For `COC(=O)N(C)[C@@H](Cc1ccccc1)C(=O)N[C@@H](Cc1ccccc1)C(=O)N[C@@H](CC1CCCCC1)C(=O)N[C@@H](CCCNC(=N)N)C(=O)N[C@@H](CC(C)C)C(=O)N[C@@H](CCCNC(=N)N)C(=O)N[C@@H](CCCNC(=N)N)C(=O)N[C@H](C)C(=O)N[C@@H](CCCNC(=N)N)C(=O)N1CCC[C@H]1C(=O)N[C@@H](CCCCN)C(N)=O`, the selectivity ratio was 227 (Oprk1; binding, [3H]diprenorphine competition; CHO cells; reference: Ki mu over Ki kappa, higher = more kappa-selective).
For `Cc1ccc(CNC(=O)C(CCc2ccccc2)NC(=O)C(NC(=O)c2ccc(OCc3ccc(C(C)(C)C)cc3)cc2)C(C)O)cc1` (centres unmarked), the selectivity ratio was at most 4 fold (Proteasome component C5/PSMB5 (Homo sapiens, UniProt P20618+P28074); Proteasome-Glo β5; B-cell lymphoma lines; 1 h; reference: IC50 differences among OCI-Ly10, WSUDLCL2 and Karpas-1106P).
`COC(=O)C=CCCC(NC(=O)c1ccncc1C(=O)O)C(=O)NC(C(=O)N1CC(=O)CC1C(=O)NC(C(=O)NC(C(N)=O)C1CCCCC1)C1CCCCC1)C(C)(C)C` (centres unmarked) gave a selectivity ratio of 463 (Protein-glutamine gamma-glutamyltransferase K (Homo sapiens, UniProt P22735); transamidation activity, inhibitor; reference: TG1 IC50 over FXIII-A2 IC50).
For `CC(=O)N(C)[C@@H](Cc1ccccc1)C(=O)N[C@@H](Cc1ccccc1)C(=O)N[C@@H](Cc1ccc(O)cc1)C(=O)N[C@@H](CCCNC(=N)N)C(=O)N[C@@H](CC(C)C)C(=O)N[C@@H](CCCNC(=N)N)C(=O)N[C@@H](CCCNC(=N)N)C(=O)N[C@H](C)C(=O)N[C@@H](CCCNC(=N)N)C(=O)N1CCC[C@H]1C(=O)N[C@@H](CCCCN)C(N)=O`, the selectivity ratio was 90 (Oprk1; binding, [3H]diprenorphine competition; CHO cells; reference: Ki mu over Ki kappa, higher = more kappa-selective).
With `O=C(NCCN1CCC2(CC1)C(=O)NCN2Cc1cccnc1)c1cc2ccccc2[nH]1` the selectivity ratio was about 69 fold (Phospholipase D2; reference: PLD1 IC50 over PLD2 IC50?).
`CN[C@@H](C)C(=O)N[C@H]1CN(C(=O)Cc2ccccc2)CC[C@H]2CC[C@@H](C(=O)NCc3ccc(C(F)(F)F)cc3)N2C1=O` gave a selectivity ratio of over 900 (Baculoviral IAP repeat-containing protein 2, BIR3 domain (BIRC2, Homo sapiens, UniProt Q13490); fluorescence polarization; BIR3 domain; reference: cIAP1 over XIAP).
`COC(=O)N(C)[C@@H](Cc1ccccc1)C(=O)N[C@@H](Cc1ccccc1)C(=O)N[C@@H](Cc1ccccc1)C(=O)N[C@@H](CCCNC(=N)N)C(=O)N[C@@H](CC(C)C)C(=O)N[C@@H](CCCNC(=N)N)C(=O)N[C@@H](CCCNC(=N)N)C(=O)N[C@H](C)C(=O)N[C@@H](CCCNC(=N)N)C(=O)N1CCC[C@H]1C(=O)N[C@@H](CCCCN)C(N)=O` has a selectivity ratio of 355 (Oprk1; binding, [3H]diprenorphine competition; CHO cells; reference: Ki mu over Ki kappa, higher = more kappa-selective).
`Cc1cc(N2CC[C@@](C#N)(C3(C)CC3)C2=O)cc(C(=O)NCc2cc(F)cc(-c3cnn(C)c3)c2)n1` has a selectivity ratio of 0.4 (Proline--tRNA ligase (Plasmodium falciparum, UniProt Q8I5R7); binding, microscale thermophoresis; reference: human over P. falciparum Kd).
With `CCC(=O)c1ccc2c(c1)sc(=O)n2CCN1CCCC1` the selectivity ratio was 41 (Sigmar1; reference: Ki sigma-2 over Ki sigma-1).
`N=C(N)NCCC[C@H](NC(=O)[C@@H]1CCCN1C(=O)[C@@H]1CSSC[C@H](N)C(=O)N[C@@H](Cc2ccc(O)cc2)C(=O)N[C@@H](Cc2ccccc2)C(=O)N[C@@H](CCC(N)=O)C(=O)N[C@@H](CC(N)=O)C(=O)N1)C(=O)NCC(N)=O` gave a selectivity ratio of 7.67 (oxytocin receptor (Mesocricetus auratus, UniProt A0A1U7Q6Y0); competition binding; hamster brain sections; reference: OTR over V1aR Ki).
For `COC(=O)N(C)[C@@H](Cc1ccccc1)C(=O)N[C@@H](Cc1ccccc1)C(=O)N[C@@H](Cc1c[nH]c2ccccc12)C(=O)N[C@@H](CCCNC(=N)N)C(=O)N[C@@H](CC(C)C)C(=O)N[C@@H](CCCNC(=N)N)C(=O)N[C@@H](CCCNC(=N)N)C(=O)N[C@H](C)C(=O)N[C@@H](CCCNC(=N)N)C(=O)N1CCC[C@H]1C(=O)N[C@@H](CCCCN)C(N)=O`, the selectivity ratio was 134 (Oprk1; binding, [3H]diprenorphine competition; CHO cells; reference: Ki mu over Ki kappa, higher = more kappa-selective).
For `CCCc1ccc2c(c1)sc(=O)n2CCCCCN1CCCCCC1`, the selectivity ratio was 0.3 (Sigmar1; reference: Ki sigma-2 over Ki sigma-1).
The selectivity ratio of `CCOc1cncc(-c2ccc(NC(=O)C3(c4ccnc(NS(=O)(=O)C5CC5)n4)CCOCC3)nc2)n1` is reported as 1360 (CTP synthase 1 (Homo sapiens, UniProt P17812); enzyme activity; human; reference: CTPS2 over target IC50).
`CC(=O)C1=C(C)NC(SCCCSc2nnc(Cc3ccccc3Nc3c(Cl)cccc3Cl)n2-c2ccc(Cl)c(Cl)c2)=NC1c1ccc(C)cc1` (centres unmarked) gave a selectivity ratio of 0.1 (Amine oxidase [flavin-containing] B (MAOB, Homo sapiens, UniProt P27338); fluorometric; reference: IC50 hMAO-A over IC50 hMAO-B).
`CC(=O)NCC(=O)N(C)[C@@H](Cc1ccccc1)C(=O)N[C@@H](Cc1ccccc1)C(=O)N[C@@H](Cc1ccccc1)C(=O)N[C@@H](CCCNC(=N)N)C(=O)N[C@@H](CC(C)C)C(=O)N[C@@H](CCCNC(=N)N)C(=O)N[C@@H](CCCNC(=N)N)C(=O)N[C@H](C)C(=O)N[C@@H](CCCNC(=N)N)C(=O)N1CCC[C@H]1C(=O)N[C@@H](CCCCN)C(N)=O` gave a selectivity ratio of over 1240 (Oprk1; binding, [3H]diprenorphine competition; CHO cells; reference: Ki mu over Ki kappa, higher = more kappa-selective).
`CCCC(=O)c1ccc2c(c1)sc(=O)n2CCCCN1CCCCCC1` gave a selectivity ratio of 5 (Sigmar1; reference: Ki sigma-2 over Ki sigma-1).

For quick reference, copied from above:
With `CCCc1ccc2c(c1)sc(=O)n2CCCN1CCCCCC1` the selectivity ratio was 13 (Sigmar1; reference: Ki sigma-2 over Ki sigma-1).
`CC(C)C[C@H](NC(=O)[C@H](CCCNC(=N)N)NC(=O)[C@H](Cc1ccccc1)NC(=O)[C@H](Cc1ccccc1)NC(=O)[C@H](Cc1ccccc1)N(C)C(=O)CN)C(=O)N[C@@H](CCCNC(=N)N)C(=O)N[C@@H](CCCNC(=N)N)C(=O)N[C@H](C)C(=O)N[C@@H](CCCNC(=N)N)C(=O)N1CCC[C@H]1C(=O)N[C@@H](CCCCN)C(N)=O` gave a selectivity ratio of 106 (Oprk1; binding, [3H]diprenorphine competition; CHO cells; reference: Ki mu over Ki kappa, higher = more kappa-selective).
